Earlier results that unrelated publications cite.
Each line is one published result; not all experiments were run side by side.
Chain of UniProt Q9P1W9 (whole entry, looked up): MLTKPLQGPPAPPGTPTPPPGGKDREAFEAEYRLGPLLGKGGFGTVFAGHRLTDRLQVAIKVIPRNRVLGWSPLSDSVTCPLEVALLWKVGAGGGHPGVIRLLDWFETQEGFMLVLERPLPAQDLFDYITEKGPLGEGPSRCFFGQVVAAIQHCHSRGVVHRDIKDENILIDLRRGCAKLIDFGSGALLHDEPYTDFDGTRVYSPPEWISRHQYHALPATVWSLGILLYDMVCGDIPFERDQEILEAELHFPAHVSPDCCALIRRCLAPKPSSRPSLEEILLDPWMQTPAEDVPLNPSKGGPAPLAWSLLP
Chain of UniProt P05177 (whole entry, looked up): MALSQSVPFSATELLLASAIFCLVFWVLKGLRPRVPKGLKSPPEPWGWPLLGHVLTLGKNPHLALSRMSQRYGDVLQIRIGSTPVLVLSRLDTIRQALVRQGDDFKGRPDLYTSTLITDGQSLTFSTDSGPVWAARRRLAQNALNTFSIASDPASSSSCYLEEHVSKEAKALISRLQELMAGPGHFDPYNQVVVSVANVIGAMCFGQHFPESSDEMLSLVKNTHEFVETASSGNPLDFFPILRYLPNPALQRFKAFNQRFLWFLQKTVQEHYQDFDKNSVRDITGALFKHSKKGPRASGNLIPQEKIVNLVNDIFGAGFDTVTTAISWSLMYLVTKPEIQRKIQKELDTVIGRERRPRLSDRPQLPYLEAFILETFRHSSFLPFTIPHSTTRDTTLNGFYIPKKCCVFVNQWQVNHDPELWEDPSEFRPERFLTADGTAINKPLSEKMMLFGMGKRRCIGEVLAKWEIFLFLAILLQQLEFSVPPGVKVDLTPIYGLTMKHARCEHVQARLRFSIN
Chain of UniProt Q9UNU6 (whole entry, unmodified, looked up): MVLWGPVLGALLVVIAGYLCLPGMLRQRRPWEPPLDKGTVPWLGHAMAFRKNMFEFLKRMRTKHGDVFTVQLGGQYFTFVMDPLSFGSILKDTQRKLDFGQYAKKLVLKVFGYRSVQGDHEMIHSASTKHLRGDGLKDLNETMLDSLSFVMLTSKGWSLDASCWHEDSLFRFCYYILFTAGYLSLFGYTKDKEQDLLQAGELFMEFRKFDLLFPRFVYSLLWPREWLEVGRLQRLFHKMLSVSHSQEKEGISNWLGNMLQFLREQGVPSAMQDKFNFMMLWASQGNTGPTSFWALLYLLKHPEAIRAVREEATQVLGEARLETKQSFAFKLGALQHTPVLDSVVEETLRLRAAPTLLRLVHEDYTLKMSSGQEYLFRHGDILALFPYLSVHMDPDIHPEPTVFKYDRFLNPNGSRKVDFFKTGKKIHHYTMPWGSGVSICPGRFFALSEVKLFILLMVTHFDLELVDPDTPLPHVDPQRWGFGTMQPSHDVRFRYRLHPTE

Structure (SMILES) | target or system | assay | test system | conditions | scale | measurement | result
Cc1ncc([N+](=O)[O-])n1CCO | CYP3A5 | substrate |  |  |  | Km | 4450 µM
O=C1Nc2ccc(Cl)cc2[C@@](C#CC2CC2)(C(F)(F)F)O1 | 2A6 |  |  | Simcyp compound file |  | intrinsic clearance | 0.47 µL/min/pmol
CC(C)CCC[C@@H](C)[C@H]1CC[C@H]2[C@@H]3[C@H](O)CC4=CC(=O)CC[C@]4(C)[C@H]3CC[C@]12C | 7-alpha-hydroxycholest-4-en-3-one 12-alpha-hydroxylase (Homo sapiens, UniProt Q9UNU6, W281F) |  |  |  | relative to: W281F mutant over wild type | Kd fold increase | ~2 fold
CN/C(=N/CCSCc1nc[nH]c1C)NC#N | SLC22A2 | substrate |  |  |  | Km | 72.6 µM
COc1cc2c(c(OC)c1OC)-c1c(cc3c(c1OC)OCO3)CC(C)C(C)C2 (stereo not drawn) | CYP3A, rat | enzyme activity, inhibitor | rat liver microsomes |  |  | Ki | 4.2 µM
CC(=O)Nc1ccc(O)cc1 | UGT1A9 |  |  |  |  | Vmax | 10900 pmol/min/mg protein
C=C(C)C(=O)OCCC(F)(F)C(F)(F)C(F)(F)C(F)(F)C(F)(F)C(F)(F)F | CYP2C9 |  |  | concentration not given |  | activity | inactive
CC12CC3CC(C)(C1)CC(N)(C3)C2 | recombinant CYP2D6 | inhibitor |  |  |  | Ki | 94.9 µM
CC1(C)S[C@@H]2[C@H](NC(=O)[C@H](N)c3ccccc3)C(=O)N2[C@H]1C(=O)O | Klebsiella pneumoniae |  | clinical isolate RKI-No_107/15 |  |  | MIC | > 16 mg/L
OC(Cn1cncn1)(Cn1cncn1)c1ccc(F)cc1F | UGT2B7 | enzyme activity, inhibitor |  |  |  | Ki | 73 µM
Cc1ccc(S(=O)(=O)N2CCCN(C(=O)c3cc(-c4ccccc4)n[nH]3)CC2)cc1 | Plasmodium falciparum | whole cell extended time | 3D7 | 72 h |  | IC50 | 0.08 µM
CC(C)c1nc(N(C)S(C)(=O)=O)nc(-c2ccc(F)cc2)c1/C=C/[C@@H](O)C[C@@H](O)CC(=O)O | BCRP |  | human | oral, 10 mg, together with: eltrombopag 75 mg oral | relative to: eltrombopag alone | Cmax increase | 103%
COc1cccc(C=Cc2nc(=O)c3ccccc3o2)c1OC | Plasmodium falciparum | whole cell extended time | 3D7 | 72 h |  | IC50 | 0.06 µM
CCn1c(=O)c(-c2cc(NC(=O)Nc3ccccc3)c(F)cc2Br)cc2cnc(NC)cc21 | human alpha-1-acid glycoprotein |  |  |  |  | plasma protein binding | 99.4%
CC(O)C(C)n1ncn(-c2ccc(N3CCN(c4ccc(OCC5COC(Cn6cncn6)(c6ccc(Cl)cc6Cl)O5)cc4)CC3)cc2)c1=O (stereo not drawn) | CYP3A4 human | substrate |  |  |  | Km | 0.027 µM
CNC(C)C1CCC(N)C(OC2C(N)CC(N)C(OC3OCC(C)(O)C(NC)C3O)C2O)O1 (stereo not drawn) | Klebsiella pneumoniae |  | clinical isolate RKI-No_577/15 |  |  | MIC | > 8 mg/L
COC(=O)N[C@@H](C)CNc1nccc(-c2cn(C(C)C)nc2-c2cc(Cl)cc(NS(C)(=O)=O)c2F)n1 | Cytochrome P450 1A2 (CYP1A2, Homo sapiens, UniProt P05177) | inducer | human primary hepatocytes | concentration not given |  | induction | increased

Structure (SMILES) | target or system | assay | test system | conditions | scale | measurement | result
FC(F)(F)C(F)(F)C(F)(F)C(F)(F)C(F)(F)C(F)(F)C(F)(F)C(F)(F)Br | CYP2C9 | inhibitor |  | Tox21 screening |  | IC50 | inactive
C=CC[C@@H]1/C=C(\C)C[C@H](C)C[C@H](OC)[C@H]2O[C@@](O)(C(=O)C(=O)N3CCCC[C@H]3C(=O)O[C@H](/C(C)=C/[C@@H]3CC[C@@H](O)[C@H](OC)C3)[C@H](C)[C@@H](O)CC1=O)[C@H](C)C[C@@H]2OC | human CYP3A5 recombinant | substrate |  |  |  | intrinsic clearance | 81 µL/min/pmol
CC[C@H]1OC(=O)[C@H](C)[C@@H](O[C@H]2C[C@@](C)(OC)[C@@H](O)[C@H](C)O2)[C@H](C)[C@@H](O[C@@H]2O[C@H](C)C[C@H](N(C)C)[C@H]2O)[C@](C)(O)C[C@@H](C)C(=O)[C@H](C)[C@@H](O)[C@]1(C)O | alpha-1-acid glycoprotein |  |  |  |  | fraction unbound | 0.305
CC[C@@H]([C@H](C)O)n1ncn(-c2ccc(N3CCN(c4ccc(OC[C@@H]5CO[C@@](Cn6cncn6)(c6ccc(F)cc6F)C5)cc4)CC3)cc2)c1=O | UGT1A4 (human) |  |  |  |  | glucuronidated fraction | 17%
NS(=O)(=O)C(F)(F)C(F)(F)C(F)(F)C(F)(F)C(F)(F)C(F)(F)C(F)(F)C(F)(F)F | CYP3A4 |  |  | concentration not given |  | activity | inactive
CO[C@H]1C[C@@H]2CC[C@@H](C)[C@@](O)(O2)C(=O)C(=O)N2CCCC[C@H]2C(=O)O[C@H]([C@H](C)C[C@@H]2CC[C@@H](O)[C@H](OC)C2)CC(=O)[C@H](C)/C=C(\C)[C@@H](O)[C@@H](OC)C(=O)[C@H](C)C[C@H](C)/C=C/C=C/C=C/1C | recombinant human CYP3A5 | substrate |  |  |  | intrinsic clearance | 3.96 µL/min/pmol
OC(Cn1cncn1)(Cn1cncn1)c1ccc(F)cc1F | UGT2B7 |  |  |  |  | clearance | 0.0052 min⁻¹
CO[C@H]1/C=C/O[C@@]2(C)Oc3c(C)c(O)c4c(O)c(c(/C=N/N5CCN(C)CC5)c(O)c4c3C2=O)NC(=O)/C(C)=C\C=C\[C@H](C)[C@H](O)[C@@H](C)[C@@H](O)[C@@H](C)[C@H](OC(C)=O)[C@@H]1C | P-glycoprotein (MDR1) | substrate |  |  |  | Km | 55 µM
Nc1cc(C(F)(F)F)c(-c2nc(N3CCOCC3)nc(N3CCOCC3)n2)cn1 | PIM2 (Homo sapiens, UniProt Q9P1W9) | enzyme activity |  | 10 µM | relative to: untreated | remaining activity | 86%
CO[C@]1(C(=O)N[C@@H](C)c2ccc(-n3cc(F)cn3)nc2)CC[C@H](c2nc(C)cc(Nc3cc(C)[nH]n3)n2)CC1 | BCRP |  | C2BBe1 | together with: Ko143 |  | efflux ratio change | no effect
CC(O)C(C)n1ncn(-c2ccc(N3CCN(c4ccc(OCC5COC(Cn6cncn6)(c6ccc(Cl)cc6Cl)O5)cc4)CC3)cc2)c1=O (stereo not drawn) | CYP3A4 human | substrate |  |  |  | Vmax | 543 pmol/min/nmol
CCNS(=O)(=O)C(F)(F)C(F)(F)C(F)(F)C(F)(F)C(F)(F)C(F)(F)C(F)(F)C(F)(F)F | CYP2D6 |  |  | concentration not given |  | activity | inactive
C[C@H]1COCCN1c1nc(-c2cnc(N)cc2C(F)F)nc(N2CCOCC2)n1 | CCRF-CEM |  |  |  |  | GI50 | 0.16 µM
CN(C)C(=O)c1cc2cnc(Nc3ccc(N4CCNCC4)cn3)nc2n1C1CCCC1 | CYP1A2 | item: caffeine | human | 400 mg once daily, 8 days | relative to: caffeine alone | increase in AUCinf | 20%
COc1cnc(-n2cnc(C)n2)c2[nH]cc(C(=O)C(=O)N3CCN(C(=O)c4ccccc4)CC3)c12 | esterases |  |  |  |  | metabolism share | 36.1%
CCC(C)n1ncn(-c2ccc(N3CCN(c4ccc(OCC5COC(Cn6cncn6)(c6ccc(Cl)cc6Cl)O5)cc4)CC3)cc2)c1=O (stereo not drawn) | P-glycoprotein |  |  | intestinal in vivo Ki |  | Ki | 0.0135 µM

A few entries again:
Structure (SMILES) | target or system | assay | test system | conditions | scale | measurement | result
CC(C)c1nc(N(C)S(C)(=O)=O)nc(-c2ccc(F)cc2)c1/C=C/[C@@H](O)C[C@@H](O)CC(=O)O | BCRP |  | human | oral, 10 mg, together with: eltrombopag 75 mg oral | relative to: eltrombopag alone | Cmax increase | 103%
CC[C@@H]([C@H](C)O)n1ncn(-c2ccc(N3CCN(c4ccc(OC[C@@H]5CO[C@@](Cn6cncn6)(c6ccc(F)cc6F)C5)cc4)CC3)cc2)c1=O | UGT1A4 (human) |  |  |  |  | glucuronidated fraction | 17%
